Assay results pooled from the literature.
Parts stem from different laboratories: compare values within a part only.
Chain of UniProt P42680 (whole entry, looked up): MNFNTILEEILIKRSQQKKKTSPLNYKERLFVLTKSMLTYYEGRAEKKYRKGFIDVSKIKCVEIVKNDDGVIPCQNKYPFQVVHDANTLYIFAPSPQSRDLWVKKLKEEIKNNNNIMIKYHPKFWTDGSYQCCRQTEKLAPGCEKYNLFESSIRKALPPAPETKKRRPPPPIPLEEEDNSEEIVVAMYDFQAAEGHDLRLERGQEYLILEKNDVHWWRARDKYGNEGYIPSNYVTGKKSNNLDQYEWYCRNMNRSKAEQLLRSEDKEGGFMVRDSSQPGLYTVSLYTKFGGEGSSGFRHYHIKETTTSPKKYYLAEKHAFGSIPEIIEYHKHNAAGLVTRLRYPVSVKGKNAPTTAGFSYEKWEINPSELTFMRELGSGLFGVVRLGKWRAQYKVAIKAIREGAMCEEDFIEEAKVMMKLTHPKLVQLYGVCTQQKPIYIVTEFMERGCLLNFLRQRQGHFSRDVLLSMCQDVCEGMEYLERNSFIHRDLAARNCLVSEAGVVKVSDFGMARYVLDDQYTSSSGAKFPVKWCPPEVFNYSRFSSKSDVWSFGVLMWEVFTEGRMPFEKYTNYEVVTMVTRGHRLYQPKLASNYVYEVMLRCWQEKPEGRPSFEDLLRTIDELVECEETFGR
Chain of UniProt P31751 (whole entry, looked up): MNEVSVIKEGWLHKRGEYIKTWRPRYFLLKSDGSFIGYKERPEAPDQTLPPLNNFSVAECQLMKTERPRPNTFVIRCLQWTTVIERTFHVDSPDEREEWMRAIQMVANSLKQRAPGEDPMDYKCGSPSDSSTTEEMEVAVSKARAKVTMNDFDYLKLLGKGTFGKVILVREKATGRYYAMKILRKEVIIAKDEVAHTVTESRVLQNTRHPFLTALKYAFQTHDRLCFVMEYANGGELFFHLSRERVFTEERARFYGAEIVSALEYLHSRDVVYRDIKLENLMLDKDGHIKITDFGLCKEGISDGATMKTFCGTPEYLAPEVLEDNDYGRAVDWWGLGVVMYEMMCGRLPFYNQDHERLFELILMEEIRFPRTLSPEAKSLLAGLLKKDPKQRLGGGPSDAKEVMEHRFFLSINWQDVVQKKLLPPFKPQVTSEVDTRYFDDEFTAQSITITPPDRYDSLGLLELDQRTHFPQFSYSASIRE
Chain of UniProt Q9UL54 (whole entry, looked up): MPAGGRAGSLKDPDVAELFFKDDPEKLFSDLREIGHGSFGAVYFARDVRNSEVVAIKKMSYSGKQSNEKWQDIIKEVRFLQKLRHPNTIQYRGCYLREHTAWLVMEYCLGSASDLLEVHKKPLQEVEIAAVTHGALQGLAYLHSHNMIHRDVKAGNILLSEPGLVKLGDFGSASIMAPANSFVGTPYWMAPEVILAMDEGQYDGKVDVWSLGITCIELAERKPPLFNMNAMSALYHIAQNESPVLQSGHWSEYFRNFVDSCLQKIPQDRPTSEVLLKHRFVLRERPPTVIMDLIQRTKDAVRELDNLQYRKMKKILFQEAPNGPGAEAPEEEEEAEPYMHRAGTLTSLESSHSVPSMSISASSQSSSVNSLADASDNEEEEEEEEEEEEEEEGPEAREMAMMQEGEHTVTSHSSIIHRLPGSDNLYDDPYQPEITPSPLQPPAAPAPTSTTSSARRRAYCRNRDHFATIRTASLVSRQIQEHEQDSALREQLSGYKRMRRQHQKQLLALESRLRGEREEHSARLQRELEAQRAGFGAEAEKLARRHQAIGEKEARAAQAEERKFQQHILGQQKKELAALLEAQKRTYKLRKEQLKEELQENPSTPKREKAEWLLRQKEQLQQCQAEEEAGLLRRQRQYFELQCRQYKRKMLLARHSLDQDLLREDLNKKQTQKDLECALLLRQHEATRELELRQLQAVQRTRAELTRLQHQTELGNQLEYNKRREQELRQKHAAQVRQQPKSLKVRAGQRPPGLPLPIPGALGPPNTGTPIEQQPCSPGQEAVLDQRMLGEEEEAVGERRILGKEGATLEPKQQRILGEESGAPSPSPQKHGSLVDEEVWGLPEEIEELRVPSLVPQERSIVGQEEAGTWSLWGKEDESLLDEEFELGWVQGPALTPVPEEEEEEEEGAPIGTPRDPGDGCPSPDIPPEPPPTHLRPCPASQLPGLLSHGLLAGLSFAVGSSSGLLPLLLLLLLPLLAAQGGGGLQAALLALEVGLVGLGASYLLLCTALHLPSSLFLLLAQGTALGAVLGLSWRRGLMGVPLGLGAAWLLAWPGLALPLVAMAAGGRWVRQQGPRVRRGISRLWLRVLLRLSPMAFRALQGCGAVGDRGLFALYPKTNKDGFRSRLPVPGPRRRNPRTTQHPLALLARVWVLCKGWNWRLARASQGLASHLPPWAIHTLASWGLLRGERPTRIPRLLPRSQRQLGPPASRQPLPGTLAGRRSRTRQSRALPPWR
Chain of UniProt Q15349 (whole entry, looked up): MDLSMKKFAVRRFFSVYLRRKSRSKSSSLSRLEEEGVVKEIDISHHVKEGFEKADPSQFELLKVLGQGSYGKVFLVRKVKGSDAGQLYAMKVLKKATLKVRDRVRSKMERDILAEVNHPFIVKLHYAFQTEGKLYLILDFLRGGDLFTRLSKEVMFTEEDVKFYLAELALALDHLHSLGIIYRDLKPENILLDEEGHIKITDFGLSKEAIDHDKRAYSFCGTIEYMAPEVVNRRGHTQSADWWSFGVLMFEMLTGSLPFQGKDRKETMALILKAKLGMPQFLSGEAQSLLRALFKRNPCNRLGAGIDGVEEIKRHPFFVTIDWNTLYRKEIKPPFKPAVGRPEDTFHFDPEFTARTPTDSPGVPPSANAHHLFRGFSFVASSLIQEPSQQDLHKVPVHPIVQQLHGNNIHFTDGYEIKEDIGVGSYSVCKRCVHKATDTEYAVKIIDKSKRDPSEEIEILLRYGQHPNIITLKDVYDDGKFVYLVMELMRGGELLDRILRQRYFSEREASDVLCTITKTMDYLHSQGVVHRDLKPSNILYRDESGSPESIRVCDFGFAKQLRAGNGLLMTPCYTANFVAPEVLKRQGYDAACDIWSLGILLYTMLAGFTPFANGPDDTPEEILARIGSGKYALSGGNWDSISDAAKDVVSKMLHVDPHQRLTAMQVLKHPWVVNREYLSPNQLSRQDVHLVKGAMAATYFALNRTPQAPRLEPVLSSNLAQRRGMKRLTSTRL
Chain of UniProt Q9BRS2 (whole entry, looked up): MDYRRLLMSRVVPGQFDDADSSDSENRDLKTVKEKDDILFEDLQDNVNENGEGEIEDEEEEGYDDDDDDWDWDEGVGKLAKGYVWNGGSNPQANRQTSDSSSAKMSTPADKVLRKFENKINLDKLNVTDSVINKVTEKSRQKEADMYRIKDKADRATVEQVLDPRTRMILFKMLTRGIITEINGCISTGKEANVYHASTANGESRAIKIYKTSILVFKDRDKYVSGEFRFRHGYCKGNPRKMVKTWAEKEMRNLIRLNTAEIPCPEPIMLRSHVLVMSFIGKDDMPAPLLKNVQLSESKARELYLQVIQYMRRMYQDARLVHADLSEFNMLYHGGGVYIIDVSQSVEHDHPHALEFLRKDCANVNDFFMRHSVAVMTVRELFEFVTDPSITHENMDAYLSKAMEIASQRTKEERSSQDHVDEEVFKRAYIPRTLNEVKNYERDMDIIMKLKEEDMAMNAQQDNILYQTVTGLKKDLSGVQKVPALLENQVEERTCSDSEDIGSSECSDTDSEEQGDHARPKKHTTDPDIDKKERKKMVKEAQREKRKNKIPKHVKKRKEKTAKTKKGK

Sample 1
Target: PAS domain-containing serine/threonine-protein kinase (PASK, Homo sapiens, UniProt Q96RG2)
Chain of UniProt Q96RG2 (whole entry, looked up): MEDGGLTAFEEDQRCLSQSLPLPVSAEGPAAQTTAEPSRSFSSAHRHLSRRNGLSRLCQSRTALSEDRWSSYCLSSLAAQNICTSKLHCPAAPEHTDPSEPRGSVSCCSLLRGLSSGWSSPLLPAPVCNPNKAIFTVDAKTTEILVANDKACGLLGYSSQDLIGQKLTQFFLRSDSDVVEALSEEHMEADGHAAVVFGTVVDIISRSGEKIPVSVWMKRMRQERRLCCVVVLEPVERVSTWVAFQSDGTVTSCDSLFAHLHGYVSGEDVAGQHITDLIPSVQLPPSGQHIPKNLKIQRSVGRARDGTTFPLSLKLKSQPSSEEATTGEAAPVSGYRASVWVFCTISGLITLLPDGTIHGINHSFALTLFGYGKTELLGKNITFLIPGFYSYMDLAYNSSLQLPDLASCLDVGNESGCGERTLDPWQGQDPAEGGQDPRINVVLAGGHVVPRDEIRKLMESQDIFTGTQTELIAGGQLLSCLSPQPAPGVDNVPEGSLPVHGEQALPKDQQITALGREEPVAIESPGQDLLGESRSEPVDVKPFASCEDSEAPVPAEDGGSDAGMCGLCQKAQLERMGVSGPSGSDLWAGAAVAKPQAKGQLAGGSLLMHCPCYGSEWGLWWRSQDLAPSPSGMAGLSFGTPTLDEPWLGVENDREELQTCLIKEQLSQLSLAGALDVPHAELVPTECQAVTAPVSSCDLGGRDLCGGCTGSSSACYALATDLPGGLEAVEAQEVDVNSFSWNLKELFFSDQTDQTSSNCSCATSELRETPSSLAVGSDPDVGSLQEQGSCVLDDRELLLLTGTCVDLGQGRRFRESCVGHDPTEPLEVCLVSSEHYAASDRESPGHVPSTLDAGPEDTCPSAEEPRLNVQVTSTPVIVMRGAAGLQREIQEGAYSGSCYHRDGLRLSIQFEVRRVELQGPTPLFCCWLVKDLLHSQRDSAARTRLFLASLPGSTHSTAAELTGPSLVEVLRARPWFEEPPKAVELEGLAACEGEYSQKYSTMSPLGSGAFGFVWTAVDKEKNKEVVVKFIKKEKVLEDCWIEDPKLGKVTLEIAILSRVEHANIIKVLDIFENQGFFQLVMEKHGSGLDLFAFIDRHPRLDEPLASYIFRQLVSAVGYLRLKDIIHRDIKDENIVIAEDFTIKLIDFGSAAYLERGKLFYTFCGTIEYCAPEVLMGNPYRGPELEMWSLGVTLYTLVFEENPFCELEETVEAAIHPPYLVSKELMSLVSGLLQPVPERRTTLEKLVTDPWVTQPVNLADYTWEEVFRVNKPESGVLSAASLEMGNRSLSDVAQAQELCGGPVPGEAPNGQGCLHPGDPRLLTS
Observed: enzyme activity
Mode: inhibitor
Concentration: 0.5 µM
Relative to: control
`Nc1nc(Nc2ccc(S(N)(=O)=O)cc2)nn1C(=O)c1c(F)cccc1F` has a remaining activity of 91.1%.
For `O=C1NC(=O)C(c2c[nH]c3ccccc23)=C1c1c[nH]c2ccccc12`, the remaining activity was 90.8%.
The remaining activity of `Oc1ccc(Nc2nc(-c3ccc(Cl)cc3)cs2)cc1` is reported as 131%.
For `Fc1ccc(-c2nc3n(c2-c2ccncc2)CCS3)cc1`, the remaining activity was 109%.
With `CC[n+]1c(/C=C/N(C)c2ccccc2)n(-c2ccccc2)c2ccc(-c3nc4ccccc4s3)cc21` the remaining activity was 102%.
`CCc1[nH]c(-c2ccc(OC)cc2)nc1-c1ccncc1` gave a remaining activity of 96.3%.
`NC(=O)c1ccc(N(C(N)=O)c2c(F)cccc2F)nc1-c1ccc(F)cc1F` gave a remaining activity of 103%.
For `CSc1nc(-c2ccnc(N[C@@H](C)c3ccccc3)c2)c(-c2ccc(F)cc2)[nH]1` (racemic), the remaining activity was 95.7%.

Sample 2
SMILES: CO[C@@H](C)c1c(Nc2ccc([C@@H](N(C)C(=O)C3CCS(=O)(=O)CC3)C(F)(F)F)cc2)cnc2cc(Cl)nn12
Observed: cell-free assay
Technique: competition with immobilised ligand
Concentration: 1 µM
For Ribosomal protein S6 kinase alpha-2, N-terminal kinase domain (RPS6KA2, Homo sapiens, UniProt Q15349): remaining binding read 100%.
For VRK2 (Homo sapiens, UniProt Q86Y07): remaining binding read 100%.
The remaining binding was 59% (CSNK1E (Homo sapiens, UniProt P49674)).
For WNK1 (Homo sapiens, UniProt Q9H4A3): remaining binding read 98%.
It gave 82% for remaining binding (TEC (Homo sapiens, UniProt P42680)).
For SRPK1 (Homo sapiens, UniProt Q96SB4): remaining binding read 95%.
The remaining binding was 99% (SRPK2 (Homo sapiens, UniProt P78362)).
CASK (Homo sapiens, UniProt O14936) — remaining binding: 100%.
AKT2 (Homo sapiens, UniProt P31751) — remaining binding: 91%.
It gave 94% for remaining binding (TAOK2 (Homo sapiens, UniProt Q9UL54)).
It gave 91% for remaining binding (RIOK1 (Homo sapiens, UniProt Q9BRS2)).
PIK3CA (Homo sapiens, UniProt P42336, E545K) — remaining binding: 62%.
It gave 96% for remaining binding (CILK1 (Homo sapiens, UniProt Q9UPZ9)).
The remaining binding was 100% (ZAP70 (Homo sapiens, UniProt P43403)).
SIK2 (Homo sapiens, UniProt Q9H0K1) — remaining binding: 92%.
It gave 100% for remaining binding (Tyrosine-protein kinase ABL1, phosphorylated (ABL1, Homo sapiens, UniProt P00519, Y253F)).

Sample 3
Host: mouse
Medium: microsomes or S9
Concentration: 2 µM
Time: 0.5 h
With `O=C(NCC1CCN(c2ccc(F)cc2)C1)C1CC(O)CN1` (centres unmarked) the remaining compound was over 100%.
`CCCNC(=O)C1CN(CC(=O)Nc2ccccc2C(=O)NCc2ccccc2)c2ccccc2O1` (centres unmarked) gave a remaining compound of 3.21%.
The remaining compound of `O=C(Nc1nc2ccc(F)cn2n1)NC1C2CCOC2C12CCC2` (centres unmarked) is reported as 29.3%.
`Cc1nc2c(NC3CCN(S(=O)(=O)C4CC4)CC3)cccn2n1` has a remaining compound of 8.26%.
The remaining compound of `Cc1c(C(=O)N[C@H]2CCOC[C@H]2C2CCOCC2)c2cc(O)ccc2n1C` is reported as 23.2%.
`CCOC(=O)C1(Cc2ccccc2)Nc2ccccc2C1=O` (centres unmarked) gave a remaining compound of 1.72%.
The remaining compound of `CCCNS(=O)(=O)c1cc(N2CCCCS2(=O)=O)ccc1OC` is reported as 49.4%.

Other studies, line by line
With `CC(C)C[C@@H](C=O)NC(=O)[C@H](CC(C)C)NC(=O)[C@H](CC(C)C)NC(=O)OCc1ccccc1` the protein level was 1.32 (Membrane-associated tyrosine- and threonine-specific cdc2-inhibitory kinase (PKMYT1, Homo sapiens, UniProt Q99640); immunoblotting; 1 µM, unit not given; relative to: untreated).

Repeated from above (sample 2):
It gave 94% for remaining binding (TAOK2 (Homo sapiens, UniProt Q9UL54)).
It gave 91% for remaining binding (RIOK1 (Homo sapiens, UniProt Q9BRS2)).
